{"data": "Published values from different studies", "note": "A part holds a random share of what one study measured. Changes are numbered by the printed parent chain."}
{"data": "Block 1", "target": "ABI1, truncated, D143A, DHFR fusion (Arabidopsis thaliana)", "technique": "DHFR PCA, deep sequencing", "sample": "yeast", "notes": "methotrexate growth selection, single substitutions", "added": "(+)-ABA 710 µM", "baseline": "wild-type fitted maximum", "reading": "higher = stronger binding", "parent": "PYL1, truncated, DHFR fusion (Arabidopsis thaliana); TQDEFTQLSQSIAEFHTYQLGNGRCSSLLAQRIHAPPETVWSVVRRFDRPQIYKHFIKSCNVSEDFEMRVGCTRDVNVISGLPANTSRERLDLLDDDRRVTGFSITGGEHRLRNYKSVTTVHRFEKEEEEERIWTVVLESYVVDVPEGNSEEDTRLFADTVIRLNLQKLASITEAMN; partner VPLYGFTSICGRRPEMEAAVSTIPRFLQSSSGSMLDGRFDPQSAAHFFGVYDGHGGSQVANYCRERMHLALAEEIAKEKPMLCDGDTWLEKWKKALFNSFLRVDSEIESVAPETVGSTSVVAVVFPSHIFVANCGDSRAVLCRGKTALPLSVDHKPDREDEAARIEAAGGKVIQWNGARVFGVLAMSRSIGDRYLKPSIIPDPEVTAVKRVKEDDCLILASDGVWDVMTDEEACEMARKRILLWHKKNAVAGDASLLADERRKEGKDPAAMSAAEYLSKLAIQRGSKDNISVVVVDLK"}
{"Variant": "H55C", "relative binding score [%]": 102}
{"Variant": "S171I", "relative binding score [%]": 92.8}
{"Variant": "E129Q", "relative binding score [%]": 111}
{"Variant": "I79C", "relative binding score [%]": 109}
{"Variant": "R45W", "relative binding score [%]": 14.1}
{"Variant": "F47Q", "relative binding score [%]": -9.97}
{"Variant": "P146K", "relative binding score [%]": 25.6}
{"Variant": "D48Q", "relative binding score [%]": 75.7}
{"Variant": "D97G", "relative binding score [%]": 110}
{"Variant": "G108W", "relative binding score [%]": 12.1}
{"Variant": "R49K", "relative binding score [%]": 99.9}
{"data": "Block 2", "target": "CCNB3, cyclin fold, Cln2 fusion (human)", "technique": "yeast growth competition, sequencing", "sample": "yeast", "notes": "weak parent motif", "baseline": "not given", "reading": "higher = stronger binding", "parent": "E2F7 docking peptide (human); SSAQRRLEIPSGG; partner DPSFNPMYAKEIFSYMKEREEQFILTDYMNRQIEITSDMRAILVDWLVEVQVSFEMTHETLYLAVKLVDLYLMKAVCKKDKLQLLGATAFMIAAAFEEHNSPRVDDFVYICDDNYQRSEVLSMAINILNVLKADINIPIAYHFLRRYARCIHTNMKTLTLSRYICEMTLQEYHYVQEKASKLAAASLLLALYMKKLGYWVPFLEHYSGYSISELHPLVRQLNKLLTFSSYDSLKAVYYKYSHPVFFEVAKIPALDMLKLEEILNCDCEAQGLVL"}
{"Variant": "S11A", "normalised enrichment score": 0.174}
{"Variant": "S1A", "normalised enrichment score": 0.32}
{"Variant": "R5A", "normalised enrichment score": 0.194}
{"Variant": "P10A", "normalised enrichment score": -0.0635}
{"Variant": "I9L", "normalised enrichment score": 0.0275}
{"Variant": "G13A", "normalised enrichment score": 0.246}
{"Variant": "R5K I9F", "normalised enrichment score": 0.00496}
{"Variant": "R6A", "normalised enrichment score": -0.506}
{"data": "Block 3", "target": "Centromere-binding protein 1, full length, His-tagged (CBF1, Saccharomyces cerevisiae, UniProt P17106, residues 1-351)", "technique": "competition protein-binding microarray", "molecule type": "double-stranded DNA, one strand shown", "sample": "in vitro", "tested at": "2 µM", "notes": "whole 60-bp probe, lowest competitor level", "added": "Pho4 competitor, 0.05 µM", "reading": "higher = stronger binding", "shared flanks, not repeated": "… GTCTTGATTCGCTTGACGCTGCTG", "chain of UniProt P17106 (whole entry, looked up)": "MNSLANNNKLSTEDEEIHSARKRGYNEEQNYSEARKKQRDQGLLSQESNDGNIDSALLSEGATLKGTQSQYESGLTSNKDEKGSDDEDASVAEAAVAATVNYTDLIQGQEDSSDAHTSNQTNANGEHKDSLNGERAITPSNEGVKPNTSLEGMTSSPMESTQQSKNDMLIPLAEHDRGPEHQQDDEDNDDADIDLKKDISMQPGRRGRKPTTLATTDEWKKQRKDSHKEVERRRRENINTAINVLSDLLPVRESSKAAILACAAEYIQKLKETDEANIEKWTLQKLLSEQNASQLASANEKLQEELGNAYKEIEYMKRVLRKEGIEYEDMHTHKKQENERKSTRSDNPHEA"}
{"Strand": "TTCGAAAAGATTCACCACGTTTCCGTCGTTATCAGC", "fluorescence intensity [a.u.]": 101}
{"Strand": "ATCAGAAGACCGCGAAACGTGCCGATGCAACCTTTT", "fluorescence intensity [a.u.]": 116}
{"Strand": "GTCTTGTCTCATTGTTTTGTGGGTGTCCCCACTTCA", "fluorescence intensity [a.u.]": 76.1}
{"Strand": "TGAATGACTTGTTGGAACGTGGTGAAATTTCTTTGG", "fluorescence intensity [a.u.]": 91.1}
{"Strand": "GTCTTGTCTCATTGCCGTGTGGGTGTCCCCACTTCA", "fluorescence intensity [a.u.]": 82.3}
{"Strand": "CTTCTGTAAATTTGGTGAGTGGGTGGACGCGCCCCG", "fluorescence intensity [a.u.]": 81.7}
{"Strand": "CGGGGTTAAGTTTGATGTGTGGGTGGCTTGCAGCAG", "fluorescence intensity [a.u.]": 61.6}
{"Strand": "ACACAATAAGTAAATATATTTTAAAAAAGTACTCCG", "fluorescence intensity [a.u.]": 112}
{"Strand": "GTTGAGCAGCTCTCCTGCGTGCTTTCACAGAGACCC", "fluorescence intensity [a.u.]": 63}
{"Strand": "CTTTGTCTTGAAATGCGCGTGTCGGTAAAATATTGT", "fluorescence intensity [a.u.]": 107}
{"Strand": "AAAGCGGTAATTTGCTGTGTGGGTGCAGATATCTAT", "fluorescence intensity [a.u.]": 74.2}
{"Strand": "CCTAAGATGGGTCGGCACGTGTAATGAACTGAACGC", "fluorescence intensity [a.u.]": 951}
{"Strand": "TCGGTGATGGTATTGCTCGTGTTTTTGGTTTGAACA", "fluorescence intensity [a.u.]": 83.5}
{"data": "Block 4", "target": "RNA binding protein fox-1 homolog 2, RRM domain, GST-SBP tag (RBFOX2, Homo sapiens, UniProt O43251-10, residues 100-194)", "technique": "RNA Bind-n-Seq", "molecule type": "RNA", "sample": "in vitro", "tested at": "365 nM", "notes": "natural RNA segment, single round, ends assumed", "baseline": "no-protein control", "reading": "higher = stronger binding", "shared flanks, not repeated": "GGGAGUUCUACAGUCCGACGAUC … UGGAAUUCUCGGGUGCCAA", "Residues (chain)": "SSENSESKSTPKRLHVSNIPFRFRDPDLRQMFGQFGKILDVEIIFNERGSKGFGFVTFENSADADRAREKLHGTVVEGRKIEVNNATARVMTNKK"}
{"Strand": "ACCUGUUCAGAUGAGAAGAUUUUUGUCUUUUGUAGCACUGAUAACCAGGAGAAGCCAUUAAAAGCCACUGGUUAUUUUAUUUUUCAUCAGGCAAUUUUCGAGGUUUUUAU", "RBNS enrichment (R)": 0.348}
{"Strand": "AAUUGCAGCUCAUGUCCGUGGGUGUGUGCACGGGUGCAUAUGUUGGAAGGGGUGCCUGUCCCCUUGGGGACAGAAGGAAAAUGAAAGGCCCCUCUGCUCACCCUGGCCAU", "RBNS enrichment (R)": 1.16}
{"Strand": "UUUGUAUUUUUAGUAGAGACGGGGUUUCACUGUGGUCUCGAUCUCCUGACCUCGUGAUCCGCCCGCCUUGGCCUCCCAAGGUGCUGGGAUUACAAGCGUGAGCCACCGCA", "RBNS enrichment (R)": 0.433}
{"Strand": "CGUCUUCACCCCGUCUCCACCCCACCUCUUCUGGCCCCCAGCCUCACUGUGGCUCUCUACAGUACCUAACCUGCUACUAAUCACGGAGAAGAAUGUGGAGGGAAAGAACA", "RBNS enrichment (R)": 0.296}
{"Strand": "AAUAUUUGUUUGGGUGGUUUGUGAGCCUUGCUGCCAAGUCCUGCCUUUGGGUCGACAUAGUAUGGAAGUAUUUGAGAGAGAGAACCUUUCCACUCCCACUGCCAGGAUUU", "RBNS enrichment (R)": 0.713}
{"Strand": "GGAGACUCAGCCUGGCUAUUCUUGAGCAUGGACAGUUGUUUCUCAAGGUGUCUUCUGACUCUCCUUCUGCCUCCCCACUAUACACUGUGGUUUGAAAAAUAUUUGCACUA", "RBNS enrichment (R)": 1.22}
{"Strand": "CUGCUCACAGACAUGAGGAAGCAGGCUGUAGAUUUAAGGGCACUCAAGGGGAAAACAAAUGUAGUUUCCACAGUGUGAGGAUAAAUGUAGAAUCGUGGUAAUAUUGGCUG", "RBNS enrichment (R)": 1.77}
{"Strand": "AUACUAGGAACAAGUAGUUUCCAUAUAUUUCGGAACUUUUAAAAAGACAAAAUGAAACAAAACCGAGCAGUUAUGGGUUUUGUUCUAUAGGAUGCCAUCAGCCAUCGAGG", "RBNS enrichment (R)": 0.485}
{"Strand": "GACAAGCCACGUCCCCUCCCACCUCUCCCCAAACCCCUGCAUCCCUGUAUUCACACGGGUCACUCUGACUCAGACAGGUACUAUUCGUAGGCAGUGUAGACAGCAGGAGG", "RBNS enrichment (R)": 0.448}
{"Strand": "CACAGGGAGGGCAGGCACCUGGAGGCAGGAGCUGACAGCAGAGGCCAGAGAGGAGAGCCACUUACUGGCUUGUUCAGCUGCUUUCUUACAGAACAUAGCCUGCCAGCUCA", "RBNS enrichment (R)": 0.417}
{"Strand": "AUCUCGGUGCACUAGGAAGUGAAUCCCGCAGGACAGCUGCACUCAGGGAUACGCCCAACACCAUGGCCUGCAACCCCAGGGUCAAGGGUGAAGGAAAGCAAGCUCACCGC", "RBNS enrichment (R)": 0.736}
{"Strand": "CUCAAACCCCAGUCACCAAUGCAAAUAAAAUCUUCUAUUUAAACCUGCUGGCUCAGUAUCGGCUGGCCAGUCAAGUGAAAGAGGAGGUGGAGCAUUUCCUGAAAGGCUUG", "RBNS enrichment (R)": 0.318}
{"note": "A few entries again (block 1):"}
{"Variant": "R49K", "relative binding score [%]": 99.9}
{"Variant": "F47Q", "relative binding score [%]": -9.97}
{"Variant": "E129Q", "relative binding score [%]": 111}
{"Variant": "H55C", "relative binding score [%]": 102}
{"Variant": "R45W", "relative binding score [%]": 14.1}
{"Variant": "S171I", "relative binding score [%]": 92.8}
{"Variant": "G108W", "relative binding score [%]": 12.1}
